Experimental data from different studies.
Numbered parts are unrelated; each lists some results of a single study. “And” joins repeats or separate records; there may be more than shown.
UniProt P21397, sequence (whole entry, looked up): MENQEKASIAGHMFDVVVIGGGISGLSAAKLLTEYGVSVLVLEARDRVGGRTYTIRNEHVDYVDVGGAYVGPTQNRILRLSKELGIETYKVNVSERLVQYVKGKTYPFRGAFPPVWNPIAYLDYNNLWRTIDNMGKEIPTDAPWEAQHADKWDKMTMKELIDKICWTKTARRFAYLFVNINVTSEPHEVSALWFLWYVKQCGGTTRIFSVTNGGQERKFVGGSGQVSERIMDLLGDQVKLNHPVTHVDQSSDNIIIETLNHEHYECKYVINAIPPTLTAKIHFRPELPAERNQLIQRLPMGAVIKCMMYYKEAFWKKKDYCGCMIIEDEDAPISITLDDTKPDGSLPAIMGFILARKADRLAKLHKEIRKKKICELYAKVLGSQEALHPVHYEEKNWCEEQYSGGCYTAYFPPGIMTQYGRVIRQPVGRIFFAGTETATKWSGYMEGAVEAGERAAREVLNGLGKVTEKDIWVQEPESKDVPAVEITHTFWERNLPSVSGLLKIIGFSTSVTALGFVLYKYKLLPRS
UniProt P05164, sequence (whole entry, looked up): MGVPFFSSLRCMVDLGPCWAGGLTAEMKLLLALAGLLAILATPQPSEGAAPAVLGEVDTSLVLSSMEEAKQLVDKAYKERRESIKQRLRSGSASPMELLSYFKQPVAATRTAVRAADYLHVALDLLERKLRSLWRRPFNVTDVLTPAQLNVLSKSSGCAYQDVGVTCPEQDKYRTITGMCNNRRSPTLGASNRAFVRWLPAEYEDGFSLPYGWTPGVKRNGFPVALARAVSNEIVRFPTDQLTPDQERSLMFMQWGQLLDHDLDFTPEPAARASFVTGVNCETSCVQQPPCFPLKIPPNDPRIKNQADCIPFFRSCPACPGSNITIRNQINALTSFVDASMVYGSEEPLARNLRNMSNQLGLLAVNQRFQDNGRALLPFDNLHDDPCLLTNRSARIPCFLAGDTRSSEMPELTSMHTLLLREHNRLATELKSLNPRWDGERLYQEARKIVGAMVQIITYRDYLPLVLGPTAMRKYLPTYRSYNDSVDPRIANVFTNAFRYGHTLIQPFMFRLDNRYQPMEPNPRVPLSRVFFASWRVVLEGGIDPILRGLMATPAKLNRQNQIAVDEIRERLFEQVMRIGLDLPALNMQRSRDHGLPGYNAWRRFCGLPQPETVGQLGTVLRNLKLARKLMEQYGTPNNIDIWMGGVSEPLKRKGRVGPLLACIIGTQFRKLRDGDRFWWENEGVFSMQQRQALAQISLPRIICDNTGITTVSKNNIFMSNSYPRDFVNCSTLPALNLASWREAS
UniProt O08590, sequence (whole entry, looked up): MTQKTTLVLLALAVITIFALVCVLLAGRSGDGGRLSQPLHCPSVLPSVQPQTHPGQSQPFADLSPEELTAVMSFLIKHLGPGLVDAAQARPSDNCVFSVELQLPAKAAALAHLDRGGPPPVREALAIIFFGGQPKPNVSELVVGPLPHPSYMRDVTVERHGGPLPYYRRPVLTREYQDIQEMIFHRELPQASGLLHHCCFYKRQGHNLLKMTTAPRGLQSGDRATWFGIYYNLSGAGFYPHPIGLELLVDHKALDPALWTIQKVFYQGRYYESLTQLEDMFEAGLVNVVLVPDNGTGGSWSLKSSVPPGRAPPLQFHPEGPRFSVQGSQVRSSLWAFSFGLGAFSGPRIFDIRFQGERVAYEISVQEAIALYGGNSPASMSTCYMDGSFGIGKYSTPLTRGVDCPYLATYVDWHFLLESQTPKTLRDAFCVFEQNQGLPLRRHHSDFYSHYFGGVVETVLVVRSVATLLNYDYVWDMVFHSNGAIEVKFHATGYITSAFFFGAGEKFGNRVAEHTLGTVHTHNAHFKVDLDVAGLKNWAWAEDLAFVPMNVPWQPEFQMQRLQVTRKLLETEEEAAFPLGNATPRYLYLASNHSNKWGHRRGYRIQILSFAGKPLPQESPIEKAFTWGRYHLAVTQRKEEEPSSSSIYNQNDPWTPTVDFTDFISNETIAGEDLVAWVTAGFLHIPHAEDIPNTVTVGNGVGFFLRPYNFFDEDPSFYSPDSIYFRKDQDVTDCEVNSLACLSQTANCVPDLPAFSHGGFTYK
UniProt P06239, sequence (whole entry, looked up): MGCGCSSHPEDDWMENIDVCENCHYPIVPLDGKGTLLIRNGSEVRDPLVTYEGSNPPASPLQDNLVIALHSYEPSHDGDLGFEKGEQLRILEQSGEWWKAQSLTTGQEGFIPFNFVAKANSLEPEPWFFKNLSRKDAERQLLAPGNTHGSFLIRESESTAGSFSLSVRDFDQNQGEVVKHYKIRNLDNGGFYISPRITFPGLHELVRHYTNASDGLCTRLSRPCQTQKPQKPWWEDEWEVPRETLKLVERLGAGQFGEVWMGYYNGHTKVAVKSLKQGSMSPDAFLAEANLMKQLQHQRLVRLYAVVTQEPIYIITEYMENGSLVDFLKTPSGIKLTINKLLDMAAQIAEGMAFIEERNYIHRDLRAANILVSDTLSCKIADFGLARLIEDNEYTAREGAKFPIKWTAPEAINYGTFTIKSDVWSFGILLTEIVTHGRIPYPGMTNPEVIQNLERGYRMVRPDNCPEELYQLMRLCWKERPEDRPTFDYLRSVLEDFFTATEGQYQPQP

Series 1
Compound: COc1cc(C(=O)OCCCN2CCCN(CCCOC(=O)c3cc(OC)c(OC)c(OCc4ccc([N+](=O)[O-])cc4)c3)CC2)cc(OC)c1OC
Target: Equilibrative nucleoside transporter 1 (SLC29A1, Homo sapiens, UniProt Q99808, del243-274/L168F/N288K/P175A)
UniProt Q99808, sequence (whole entry, unmodified, looked up): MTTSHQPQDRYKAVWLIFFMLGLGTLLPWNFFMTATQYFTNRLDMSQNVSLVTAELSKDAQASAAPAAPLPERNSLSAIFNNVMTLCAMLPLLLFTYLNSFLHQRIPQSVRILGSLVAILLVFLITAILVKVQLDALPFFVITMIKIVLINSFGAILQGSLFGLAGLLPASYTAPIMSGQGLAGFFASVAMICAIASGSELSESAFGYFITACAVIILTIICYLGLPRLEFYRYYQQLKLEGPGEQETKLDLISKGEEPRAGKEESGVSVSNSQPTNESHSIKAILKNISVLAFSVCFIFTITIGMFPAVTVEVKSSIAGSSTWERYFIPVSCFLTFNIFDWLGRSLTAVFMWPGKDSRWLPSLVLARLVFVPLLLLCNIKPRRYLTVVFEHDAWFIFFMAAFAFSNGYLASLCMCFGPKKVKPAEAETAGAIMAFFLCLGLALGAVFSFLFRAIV
Mode: competitor
Method: scintillation proximity
setting | [3H]NBMPR binding
4.354 nM | 99.1% and 94.6% and 85.1% and 98.8% and 99.2% and 108%
236.2 nM | 26.7% and 32.5% and 36.4% and 29.5% and 36.5% and 34.1%
2204.72 nM | 6.62% and 8.01% and 7.87% and 7.4% and 7.32% and 10.8%
9.314 nM | 86.4% and 106% and 80.5% and 93.3% and 94.3% and 82.1%
0.6238 nM | 90.6% and 107% and 102%

Series 2
Compound: CNc1ncc2cc(-c3cc(OC)cc(OC)c3Cl)c(=O)n(CCc3ccc(NC(=O)C(C#N)=CC(C)(C)N4CCOCC4)cc3)c2n1
Effect on: kinase activity
target | setting | inhibition [%]
MAPK9 (Homo sapiens, UniProt P45984) | 1 µM | 7
MKNK2 (Homo sapiens, UniProt Q9HBH9) | 0.1 µM | 5
MKNK1 (Homo sapiens, UniProt Q9BUB5) | 0.1 µM | 8
EPHA5 (Homo sapiens, UniProt P54756) | 1 µM | 14
SIK1 (Homo sapiens, UniProt P57059) | 1 µM | 1
MELK (Homo sapiens, UniProt Q14680) | 1 µM | 16
CDC42BPB (Homo sapiens, UniProt Q9Y5S2) | 0.1 µM | -1
MERTK (Homo sapiens, UniProt Q12866) | 0.1 µM | 2
LCK (Homo sapiens, UniProt P06239) | 0.1 µM | 2
FYN (Homo sapiens, UniProt P06241) | 0.1 µM | 0
AKT1 (Homo sapiens, UniProt P31749) | 1 µM | -1
KDR (Homo sapiens, UniProt P35968) | 0.1 µM | 44
RPS6KA3 (Homo sapiens, UniProt P51812) | 0.1 µM | 0
PKN1 (Homo sapiens, UniProt Q16512) | 0.1 µM | -3

Series 3
SMILES: CS(=O)(=O)c1ccc(OC/C(=C/F)CN)cc1.Cl
MAOB: Amine oxidase [flavin-containing] B (MAOB, Homo sapiens, UniProt P27338)
UniProt P27338, sequence (whole entry, looked up): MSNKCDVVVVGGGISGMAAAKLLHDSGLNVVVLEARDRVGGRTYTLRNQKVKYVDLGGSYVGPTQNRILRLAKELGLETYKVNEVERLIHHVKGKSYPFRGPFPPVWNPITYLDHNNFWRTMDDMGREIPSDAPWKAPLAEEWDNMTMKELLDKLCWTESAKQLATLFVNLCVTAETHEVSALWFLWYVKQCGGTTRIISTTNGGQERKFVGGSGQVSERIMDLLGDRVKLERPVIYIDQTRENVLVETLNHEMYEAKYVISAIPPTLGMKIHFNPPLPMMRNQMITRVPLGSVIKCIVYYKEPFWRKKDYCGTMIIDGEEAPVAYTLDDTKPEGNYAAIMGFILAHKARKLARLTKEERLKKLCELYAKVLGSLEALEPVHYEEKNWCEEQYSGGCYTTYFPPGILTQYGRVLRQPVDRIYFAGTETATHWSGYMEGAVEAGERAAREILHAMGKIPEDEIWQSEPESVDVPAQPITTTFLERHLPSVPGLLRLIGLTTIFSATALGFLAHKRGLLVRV
target | test | system | setting | inhibition
Amine oxidase [copper-containing] 3 (Rattus norvegicus, UniProt O08590) | – | rat adipose tissue | 3 µM | 100%
MAOB | enzyme activity, inhibitor | – | 500 pM | 2.61% and 4.56% and -0.72%
MAOB | enzyme activity, inhibitor | – | 4.6 nM | 7.96% and 1.49% and 2.81%
Myeloperoxidase (MPO, Homo sapiens, UniProt P05164) | enzyme activity, inhibitor, fluorescence | – | 30 µM | 0.133% and -5.1% and -9.45%
MAOA (Homo sapiens, UniProt P21397) | enzyme activity, inhibitor | – | 41.2 nM | -0.917% and 2.05% and 7.97% and -1.74% and -0.905%
Amine oxidase [copper-containing] 3 (Mus musculus, UniProt O70423) | – | mouse adipose tissue | 0.037 µM | 96.9%
MAOB | enzyme activity, inhibitor | – | 0.3704 µM | 0.362% and 0.97%
Amine oxidase [copper-containing] 3 (Rattus norvegicus, UniProt O08590) | – | rat adipose tissue | 0.3333 µM | 98.2%

Series 4
SMILES: C[C@@H]1CN(c2ccc(-c3cc(C(=O)NCCOCCOCCOCCOCCNC(=O)/C=C/c4[nH]cc(C(=O)N[C@@H](CC(N)=O)c5ccc(F)c(Cl)c5)c4-c4ccc(Cl)cc4F)ccc3F)cc2NC(=O)c2c[nH]c(=O)cc2C(F)(F)F)C[C@H](C)N1C
Effect on: thermal unfolding
Method: differential scanning fluorimetry
Concentration: 5.5 µM
Reading: higher = more unfolded
WDR5: WD repeat-containing protein 5 (WDR5, Homo sapiens, UniProt P61964)
DCAF1: DDB1- and CUL4-associated factor 1 (DCAF1, Homo sapiens, UniProt Q9Y4B6)
UniProt Q9Y4B6, sequence (whole entry, looked up): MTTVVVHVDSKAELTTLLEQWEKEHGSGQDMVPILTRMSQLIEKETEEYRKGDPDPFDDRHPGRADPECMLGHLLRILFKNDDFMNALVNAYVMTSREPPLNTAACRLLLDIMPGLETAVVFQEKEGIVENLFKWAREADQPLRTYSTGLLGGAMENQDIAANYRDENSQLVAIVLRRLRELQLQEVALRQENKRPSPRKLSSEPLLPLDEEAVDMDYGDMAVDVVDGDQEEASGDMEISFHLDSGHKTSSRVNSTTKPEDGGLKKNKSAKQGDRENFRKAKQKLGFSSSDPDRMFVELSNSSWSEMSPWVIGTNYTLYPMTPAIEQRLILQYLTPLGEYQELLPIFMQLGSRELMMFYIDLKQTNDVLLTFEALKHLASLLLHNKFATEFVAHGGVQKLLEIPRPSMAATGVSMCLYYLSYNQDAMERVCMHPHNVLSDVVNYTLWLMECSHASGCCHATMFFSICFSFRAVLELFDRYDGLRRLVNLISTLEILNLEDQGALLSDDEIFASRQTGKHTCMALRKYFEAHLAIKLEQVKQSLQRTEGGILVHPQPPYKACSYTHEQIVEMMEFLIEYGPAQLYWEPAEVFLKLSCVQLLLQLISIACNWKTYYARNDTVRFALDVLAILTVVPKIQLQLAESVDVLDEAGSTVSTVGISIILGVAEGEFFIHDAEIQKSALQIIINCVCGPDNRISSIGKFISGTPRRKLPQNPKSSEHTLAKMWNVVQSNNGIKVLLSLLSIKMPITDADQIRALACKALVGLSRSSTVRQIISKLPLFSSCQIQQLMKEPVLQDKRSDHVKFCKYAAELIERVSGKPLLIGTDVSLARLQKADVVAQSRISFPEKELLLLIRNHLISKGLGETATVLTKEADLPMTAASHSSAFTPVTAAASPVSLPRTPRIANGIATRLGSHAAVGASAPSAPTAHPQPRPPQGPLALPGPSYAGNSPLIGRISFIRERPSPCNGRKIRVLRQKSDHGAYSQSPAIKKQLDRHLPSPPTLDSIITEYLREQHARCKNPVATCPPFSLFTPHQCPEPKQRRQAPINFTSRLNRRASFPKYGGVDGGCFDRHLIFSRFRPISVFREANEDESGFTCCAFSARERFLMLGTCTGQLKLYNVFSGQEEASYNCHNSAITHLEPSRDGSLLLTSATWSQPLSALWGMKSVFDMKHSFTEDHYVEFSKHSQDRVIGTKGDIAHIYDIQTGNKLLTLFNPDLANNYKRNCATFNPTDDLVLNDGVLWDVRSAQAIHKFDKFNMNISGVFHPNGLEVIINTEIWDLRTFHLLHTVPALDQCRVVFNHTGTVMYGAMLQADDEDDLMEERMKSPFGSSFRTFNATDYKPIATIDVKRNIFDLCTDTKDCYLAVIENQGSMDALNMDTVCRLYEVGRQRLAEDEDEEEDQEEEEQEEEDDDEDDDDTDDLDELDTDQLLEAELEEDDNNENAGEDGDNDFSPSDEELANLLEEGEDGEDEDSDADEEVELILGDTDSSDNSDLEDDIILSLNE
target | setting | SYPRO Orange fluorescence [a.u.]
WDR5 | 88.01 °C | 53200
WDR5 | 83.01 °C | 48600
DCAF1 | 79.01 °C | 46300
DCAF1 | 36.8 °C | 10600
DCAF1 | 27.8 °C | 8970
WDR5 | 65.81 °C | 14100
DCAF1 | 33.2 °C | 9810
WDR5 | 39.8 °C | 13900

For quick reference, copied from above (series 1):
setting | [3H]NBMPR binding
4.354 nM | 99.1% and 94.6% and 85.1% and 98.8% and 99.2% and 108%
236.2 nM | 26.7% and 32.5% and 36.4% and 29.5% and 36.5% and 34.1%
2204.72 nM | 6.62% and 8.01% and 7.87% and 7.4% and 7.32% and 10.8%
